Assay results gathered from unrelated publications.
Lines come from different studies, so protocols differ. Values joined by “and” are separate records of one study, mostly repeats; a detail may differ. Numbers after ± are the reported error. ≈ marks a conversion by molar mass, not a printed value.

CCC(CC)n1c(Cc2cccs2)nc2cc(C(=O)N[C@@H](CC(=O)O)c3ccccc3)ccc21
MRT(0-t) (male Sprague-Dawley rat, plasma; intraperitoneal, 10 mg/kg): 2.19 h

Cc1ccc(CN2C(=O)/C(=N\c3ccc(Cl)cc3Br)c3ccccc32)cc1
Mon% (mouse, blood; 150 mg/kg): 2.63 ± 0.4%

Nc1ncc(-c2ccc(C3CCCCC3)cc2)cn1
hepatic clearance (hepatocyte stability; cryopreserved human hepatocytes; 1 µM): 19 mL/min/kg

O=C(Nc1cnccc1-c1ccc([18F])cc1)c1ccnc(NC(=O)C2CC2)c1
mean SUV (ex vivo biodistribution, gamma counting; GSK-3β overexpressing transgenic mouse, late stage, cecum; intravenous, 120 min post-injection): 8.82

O=C(NCCO)c1ccc([C@H]2[C@@H](F)[C@@H](F)C[C@@H](F)[C@H]2F)cc1
hepatic clearance (liver microsome stability; human liver microsomes; 1 µM, without NADPH): 3.9 mL/min/kg

C=C1C[C@]2(C(=O)OC)C=C(C(=O)Nc3cccc(C(=O)Nc4ccc(Nc5nccc(-c6cccnc6)n5)c(C)c4)c3)C(=O)[C@H]1C2
compound remaining (Wistar rat male, blood plasma; 10 µM, 120 min): 0.42%

CCC1=[N+]2N=C(/C=C/C=C/c3ccc(C(F)(F)F)cc3)C(=O)O[B-]2(c2ccccc2)Oc2cc(N(CC)CC)ccc21 (centres unmarked)
fluorescence emission maximum (toluene): 550 nm

O=C(Nc1cnccc1-c1ccc([18F])nc1)c1ccnc(NC(=O)C2CC2)c1
SUV (FVB/NJ mouse, both sexes, liver; intravenous, 20 min, with: tariquidar 15 mg/kg iv): 8.83

Fc1ccc(OCC2CN(Cc3cn4ccccc4n3)CCC2(F)F)cc1 (centres unmarked)
fu (equilibrium dialysis; mouse plasma): 0.064

COc1ccc2c(c1)CN(C(=O)CCN1CCC(Cc3ccccc3)CC1)CCS2
fu (human plasma; 75 ng/mL): 0.018

C=C(NC(=O)c1csc(-c2nc3c(cc2O)-c2nc(cs2)C(=O)NC(C(C)O)C(=O)NC(=C(C)OC)c2nc(cs2)C(=O)NC2c4nc(cs4)C(=O)NC(COC(=O)c4c5c6c(cccc6n4O)COC(=O)C(OC4CC(C)(O)C(N(C)C)C(C)O4)C2OC5)c2nc-3cs2)n1)C(N)=O (centres unmarked)
volume of distribution (Sprague-Dawley rat, male, plasma; intravenous infusion, 18 mg/kg single dose): 31700 mL/kg

Cc1c(COc2cc(OCc3cccc(C#N)c3)c(CN3C[C@H](O)C[C@@H]3C(=O)O)cc2Cl)cccc1-c1ccc2c(c1)OCCO2
t1/2 (rat, Sprague-Dawley, plasma; 1.0 mg/kg, free drug solution): 10 min

COc1cccc(OC)c1-c1cc(C(=O)NC2(C(=O)O)C3CC4CC(C3)CC2C4)nn1-c1ccc(C(=O)N(C)CCOCCOCCN(C)C(=O)[C@H](CCCCNC(=O)[C@H](CC(C)C)NC(=O)C2OC2C(=O)O)NC(=O)CN2CCN(CC(=O)[O-])CCN(CC(=O)[O-])CCN(CC(=O)[O-])CC2)cc1C(C)C.[177Lu+3] (mixture of isomers)
tumour-to-kidney ratio (mouse, HT-29 xenograft; 24 h post injection, biodistribution; baseline: tumour over kidney uptake): 0.33

O=C(c1ccc(-c2ccccc2)cc1)N1CCCCC1
elimination rate constant (pooled human liver microsomes; 2 µM, pH 7.4): 8.33e-05 s⁻¹

COC1C=COC2(C)Oc3c(C)c(O)c4c(c3C2=O)C2=NC3(CCN(CC(C)C)CC3)NC2=C(NC(=O)C(C)=CC=CC(C)C(O)C(C)C(O)C(C)C(OC(=O)c2cccnc2)C1C)C4=O (centres unmarked)
fAUC/MIC ratio (CD-1 mouse, plasma; oral, dose not given, efficacy dose): 151

O=C(N1CCCCC1)C12CC(c3ccccc3)(C1)C2(Br)Br
compound remaining (metabolic stability; human, liver microsomes; 2 µM, 25 min, pH 7.4): 31%

O=C(NCc1cccc(Cl)c1)c1ccc([C@H]2[C@@H](F)[C@@H](F)C[C@@H](F)[C@H]2F)cc1
hepatic clearance (liver microsome stability; rat liver microsomes; 1 µM): 21 mL/min/kg

[11CH3]N(Cc1ccc(/C=C/C(=O)NO)cc1)CC12CC3CC(CC(C3)C1)C2
parent compound in plasma (baboon, arterial plasma; intravenous, dose not given, over 30 min): 40%

O=C(Nc1ccc([C@H]2[C@@H](F)[C@@H](F)C[C@@H](F)[C@H]2F)cc1)C1(N2CCOCC2)CC1
hepatic clearance (hepatocyte stability; cryopreserved human hepatocytes; 1 µM): 14 mL/min/kg

C=C[C@]1(C)C[C@@H](OC(=O)CSc2ccc(NC(=O)c3ccco3)cc2)[C@]2(C)[C@H](C)CC[C@]3(CCC(=O)[C@H]32)[C@@H](C)[C@@H]1O
elimination half-life (chicken, Mycoplasmoides gallisepticum infected, plasma; intramuscular, 80 mg/kg): 4.23 h

O=C(CCC(F)(F)F)Nc1ccc([C@H]2[C@@H](F)[C@@H](F)C[C@@H](F)[C@H]2F)cc1
hepatic clearance (liver microsome stability; cynomolgus liver microsomes; 1 µM): 4.9 mL/min/kg

COCC1CN(C2CCN(c3cc(OC)c(Nc4ncc(Br)c(Nc5ccc6c(c5P(C)(C)=O)OCCO6)n4)cc3C)CC2)C1
t1/2 (EGFR-mutant NSCLC patients, plasma; oral, 240 mg single dose, geometric mean): 2020 min

CS(=O)(=O)c1ccc(-c2ccc([C@H]3[C@@H](F)[C@@H](F)C[C@@H](F)[C@H]3F)cc2)cn1
hepatic clearance (hepatocyte stability; cryopreserved rat hepatocytes; 1 µM): 10 mL/min/kg

C=CC(=O)N1CCCC(n2c(=O)c3ncccc3n(Cc3ccc(Oc4ccccc4)cc3)c2=O)C1 (centres unmarked)
compound remaining (metabolic stability; human, hepatocytes; 1 µM, 90 min): 46.5%

C/C(N)=N/C(=N\S(=O)(=O)c1ccc(C(F)(F)F)cc1)N1C[C@H](c2ccccc2)C(c2ccc(Cl)cc2)=N1
Cmax (cynomolgus monkey, female, plasma; oral, 6 mg/kg): 1190 ng/mL

CC(C)OC(=O)[C@H](CO)NCc1cc(Cl)c(OCc2cccc(-c3ccccc3)c2Br)cc1OCc1cccnc1
body weight (hPD-L1 MC-38 tumour, humanised hPD-1 C57BL/6 mouse; oral, 5 mg/kg × 21, day 21): 21.4 ± 0.9 g

COC(=O)[C@@]1(C(C)C)C=C(C(=O)Nc2cccc(C(=O)Nc3ccc(Nc4nccc(-c5cccnc5)n4)c(C)c3)c2)C(=O)CC1
compound remaining (rat, plasma; 1 µM, 10 min): 97.4% and 101%

CCc1cnc(NC(=O)c2cc(S(=O)(=O)N3CCOCC3)ccc2N(C)C2CCCC2)s1
Cholesterol (mouse, serum; 10 mg/kg, 3 doses): 102 mg/dL

CC[C@H](C)[C@@H]1NC(=O)[C@H](Cc2ccc(O)cc2)NC(=O)CCCSC[C@@H](C(=O)N(CC(=O)N[C@@H](CC(C)C)C(=O)NCC(N)=O)Cc2ccc(F)cc2)NC(=O)[C@H](CC(N)=O)NC(=O)[C@H](CCC(N)=O)NC1=O
AE leading to discontinuation (human; intranasal, 400 µg repeated): 17%

Cc1ccc(OCC(=O)N(Cc2cccs2)c2ccn[nH]2)cc1
remaining compound (rat plasma; 750 ng/mL, 1 h, 37 °C, unit not given; baseline: time zero): 0.7

COc1cccc(OC)c1-c1cc(C(=O)NC2(C(=O)O)C3CC4CC(C3)CC2C4)nn1-c1ccc(C(=O)NCCNC(=O)[C@H](CCCCNC(=O)[C@H](CC(C)C)NC(=O)C2OC2C(=O)O)NC(=O)CN2CCN(CC(=O)[O-])CCN(CC(=O)[O-])CCN(CC(=O)[O-])CC2)cc1C(C)C.[177Lu+3] (mixture of isomers)
tumour-to-blood ratio (mouse, HT-29 xenograft; 4 h post injection, biodistribution; baseline: tumour over blood uptake): 3.72

Cc1cc(C)n(CCN(CCN)CCCCCCNC(=O)[C@@H](N)Cc2c[nH]c3ccccc23)n1.[99Tc+].[C-]#[O+].[C-]#[O+].[C-]#[O+]
excretion (BALB/c nude mice A549 xenograft; intravenous, 4 h): 30.5 % injected activity

CCC1=[N+]2N=C(/C=C/c3ccccc3)C(=O)O[B-]2(c2ccccc2)Oc2cc(N(CC)CC)ccc21 (centres unmarked)
fluorescence lifetime (toluene): 2.12 ns

CN(C)c1cccc(-c2ccc(C3CCCCC3)cc2)c1
hepatic clearance (liver microsome stability; mouse liver microsomes; 1 µM): 82 mL/min/kg

O=C([O-])CN1CCN(CC(=O)[O-])CCN(CC(CCCc2ccccc2[N+](=O)[O-])N(CC(=O)[O-])CC(=O)[O-])CC1.[177Lu+3] (centres unmarked)
intact radiolabelled complex (TLC; human serum; 62 h, pH 7, 37 °C): 99.9%

CCCN(C)c1cc(C(F)(F)F)nc(SCCC(=O)NCc2ccco2)n1
heart rate (Wistar rat; intraperitoneal, 25 mg/kg, 2 h post-dose, isoflurane anaesthesia; baseline: vehicle control): no effect

C=CC(=O)Nc1cc(Nc2nccc(-c3cn(C)c4ccccc34)n2)c(OC)cc1N(C)CCNC
percentage recovery (storage stability; human dried blood spot samples; 30 d, -80 °C, LQC level; baseline: nominal concentration): 47.1%

O=S1(=O)CC2CCCCC2CS1 (centres unmarked)
solubility (phase solubility, NMR; water; 25 °C, with: hydroxypropyl-β-cyclodextrin 1148 mM): 135 mM (≈ 27.9 mg/mL)

Some of these lines once more:
C=C(NC(=O)c1csc(-c2nc3c(cc2O)-c2nc(cs2)C(=O)NC(C(C)O)C(=O)NC(=C(C)OC)c2nc(cs2)C(=O)NC2c4nc(cs4)C(=O)NC(COC(=O)c4c5c6c(cccc6n4O)COC(=O)C(OC4CC(C)(O)C(N(C)C)C(C)O4)C2OC5)c2nc-3cs2)n1)C(N)=O (centres unmarked)
volume of distribution (Sprague-Dawley rat, male, plasma; intravenous infusion, 18 mg/kg single dose): 31700 mL/kg

COc1cccc(OC)c1-c1cc(C(=O)NC2(C(=O)O)C3CC4CC(C3)CC2C4)nn1-c1ccc(C(=O)N(C)CCOCCOCCN(C)C(=O)[C@H](CCCCNC(=O)[C@H](CC(C)C)NC(=O)C2OC2C(=O)O)NC(=O)CN2CCN(CC(=O)[O-])CCN(CC(=O)[O-])CCN(CC(=O)[O-])CC2)cc1C(C)C.[177Lu+3] (mixture of isomers)
tumour-to-kidney ratio (mouse, HT-29 xenograft; 24 h post injection, biodistribution; baseline: tumour over kidney uptake): 0.33

Cc1c(COc2cc(OCc3cccc(C#N)c3)c(CN3C[C@H](O)C[C@@H]3C(=O)O)cc2Cl)cccc1-c1ccc2c(c1)OCCO2
t1/2 (rat, Sprague-Dawley, plasma; 1.0 mg/kg, free drug solution): 10 min

O=C(NCCO)c1ccc([C@H]2[C@@H](F)[C@@H](F)C[C@@H](F)[C@H]2F)cc1
hepatic clearance (liver microsome stability; human liver microsomes; 1 µM, without NADPH): 3.9 mL/min/kg

O=C(Nc1ccc([C@H]2[C@@H](F)[C@@H](F)C[C@@H](F)[C@H]2F)cc1)C1(N2CCOCC2)CC1
hepatic clearance (hepatocyte stability; cryopreserved human hepatocytes; 1 µM): 14 mL/min/kg
